# Measurements collected from several papers.
# Numbered parts are unrelated; each lists some results of a single study.
# UniProt P14780, sequence (whole entry, unmodified, looked up): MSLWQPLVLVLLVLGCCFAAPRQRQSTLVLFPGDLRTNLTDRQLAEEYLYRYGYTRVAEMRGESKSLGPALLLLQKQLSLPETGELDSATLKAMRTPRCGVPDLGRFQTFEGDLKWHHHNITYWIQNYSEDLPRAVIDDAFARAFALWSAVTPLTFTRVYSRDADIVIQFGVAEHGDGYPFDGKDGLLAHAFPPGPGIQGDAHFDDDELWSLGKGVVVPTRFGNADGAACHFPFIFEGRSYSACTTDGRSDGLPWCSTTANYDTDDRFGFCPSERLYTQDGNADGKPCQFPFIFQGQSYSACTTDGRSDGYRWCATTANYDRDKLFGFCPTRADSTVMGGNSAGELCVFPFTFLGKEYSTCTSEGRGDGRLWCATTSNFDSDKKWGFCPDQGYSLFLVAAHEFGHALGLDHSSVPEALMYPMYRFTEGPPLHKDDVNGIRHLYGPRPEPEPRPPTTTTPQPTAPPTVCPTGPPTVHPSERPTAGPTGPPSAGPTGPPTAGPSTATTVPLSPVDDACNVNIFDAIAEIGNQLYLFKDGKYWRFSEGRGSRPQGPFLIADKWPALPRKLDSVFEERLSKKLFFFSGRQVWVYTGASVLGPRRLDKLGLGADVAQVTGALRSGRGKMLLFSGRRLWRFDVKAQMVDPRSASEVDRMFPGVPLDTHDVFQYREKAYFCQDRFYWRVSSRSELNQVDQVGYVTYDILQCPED

# Study 1
# Target: Diamine acetyltransferase 1 (Homo sapiens, UniProt P21673)
# Action: inhibitor
# Tested at: 10 µM
# Reference: control
# Target sequence (P21673 1-171): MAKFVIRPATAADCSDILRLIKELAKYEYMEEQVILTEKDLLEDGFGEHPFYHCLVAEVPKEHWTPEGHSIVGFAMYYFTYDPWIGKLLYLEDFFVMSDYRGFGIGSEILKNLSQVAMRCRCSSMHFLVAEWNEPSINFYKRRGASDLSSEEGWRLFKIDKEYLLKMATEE
Structure (SMILES),remaining activity [%]
COc1ccc(C(=O)O)cc1OC,91
Oc1cc(O)cc(/C=C/c2ccc(O)cc2O)c1,98.1
O=C/C=C/c1ccccc1,83.4
O=C1c2ccccc2C(=O)c2ccccc21,88.5

# Study 2
# Cell line: HEK-293T/ACE2
# Time: 17.5 h
SMILES,CC50 [µM]
CN1CCN(CCCN2c3ccccc3Sc3ccc(C(F)(F)F)cc32)CC1,24.6
CCSc1ccc2c(c1)N(CCCN1CCN(C)CC1)c1ccccc1S2,34.4
COc1ccc2c(c1)N(C[C@H](C)CN(C)C)c1ccccc1S2,42.2
CC(=O)c1ccc2c(c1)N(CCCN(C)C)c1ccccc1S2,77.1
CN1CCN(CCCN2c3ccccc3Sc3ccc(S(=O)(=O)N(C)C)cc32)CC1,51.7
CN1CCCC(CN2c3ccccc3Sc3ccccc32)C1 (stereo not drawn),57
CN1CC2c3ccccc3Oc3ccc(Cl)cc3C2C1 (stereo not drawn),42.5
COc1ccc2c(c1)N(CCCN(C)C)c1ccccc1S2,58.1
CN(C)CCCN1c2ccccc2Sc2ccc(Cl)cc21,26.6
CC(CN1c2ccccc2Sc2ccccc21)N(C)C (stereo not drawn),67

# Study 3
# Target: Sodium-dependent dopamine transporter (SLC6A3, Homo sapiens, UniProt Q01959)
# UniProt Q01959, sequence (whole entry, looked up): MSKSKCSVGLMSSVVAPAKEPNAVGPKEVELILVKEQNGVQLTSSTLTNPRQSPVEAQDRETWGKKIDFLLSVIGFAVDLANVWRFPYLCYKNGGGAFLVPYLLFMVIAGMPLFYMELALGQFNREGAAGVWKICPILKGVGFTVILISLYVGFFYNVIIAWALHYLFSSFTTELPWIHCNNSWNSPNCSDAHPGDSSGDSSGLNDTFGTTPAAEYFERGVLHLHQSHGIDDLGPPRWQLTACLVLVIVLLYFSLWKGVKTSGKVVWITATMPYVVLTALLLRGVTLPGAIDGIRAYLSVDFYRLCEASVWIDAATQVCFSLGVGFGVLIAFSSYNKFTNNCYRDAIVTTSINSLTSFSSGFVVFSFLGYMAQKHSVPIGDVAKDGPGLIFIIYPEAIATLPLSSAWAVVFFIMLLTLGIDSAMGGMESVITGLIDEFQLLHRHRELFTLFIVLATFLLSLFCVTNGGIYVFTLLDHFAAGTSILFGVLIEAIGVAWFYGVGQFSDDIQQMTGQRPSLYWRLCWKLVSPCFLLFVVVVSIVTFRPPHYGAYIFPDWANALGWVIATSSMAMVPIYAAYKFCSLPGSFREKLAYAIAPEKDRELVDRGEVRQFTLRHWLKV
# Effect on: binding
# Method: radioligand binding
# Tested at: 10 µM
Structure (SMILES),inhibition [%]
O=C1CCc2cc(Nc3cc(OC4CCOCC4)c([N+](=O)[O-])cc3Cl)ccc2N1,13.6
C[C@@]1(Cc2ccc(C#N)cc2)C(=O)N(c2cc(Cl)cc(Cl)c2)c2ncc(C(=O)NC3(c4nc(C5CCC5)no4)CC3)n21,-16
O=C(Nc1cnc(Oc2ccc(F)cc2)nc1)N1CCc2ncccc2[C@@H]1c1ccc(F)cc1,-39.3
O=C(Nc1cccnn1)N1CCC(=Cc2cccc(Oc3ccc(C(F)(F)F)cn3)c2)CC1,-30.3
O=C(NC[C@@H]1[C@H]2CN(C(=O)OCc3cc(C(F)(F)F)cc(C(F)(F)F)c3)C[C@@H]12)c1ccc2[nH]nnc2c1,-2.65
COc1nc2ccc([C@@](O)(c3ccccc3)C3CCN(C(C)=O)CC3)cc2c(Cl)c1Cc1ccc(-n2cccn2)cc1,21
COc1cc(-c2cn(C3CCc4ccccc4N(CC(F)(F)F)C3=O)nn2)ccc1-n1ccc(C)n1 (stereo not drawn),5.21
CC1=C(C#N)[C@@H](c2ccc3[nH]nc(C)c3c2)C(C#N)=C(c2ccc(Cl)cc2)N1,-10.5
CNC(=O)c1ccc(Nc2ncc(C(F)(F)F)c(NCc3nccnc3N(C)S(C)(=O)=O)n2)cc1,-6.06
CCOCCn1cc(C(=O)Nc2ccc(-n3nc(-c4cccnc4)cc3C(F)(F)F)cn2)ccc1=O,82.1
Cc1cc(-n2nc(Cc3cc(F)cc(C(F)(F)F)c3)nc2C)ccc1C(N)=O,7.33
CN1CCN(C(=O)C(C)(C)c2ccc(C(=O)Nc3cn4cc(-c5ccncc5)ccc4n3)cc2)CC1,8.33
O=C(O)c1cc(-c2ccc(C3CCNCC3)cc2)c2ccc(-c3ccc(C(F)(F)F)cc3)cc2c1,37.7
O=C1c2ccc(Nc3ccc(F)cc3F)cc2CCc2ccc(OC[C@H](O)CO)cc21,81.4
Cc1nc(Cc2cccc(C(F)(F)F)c2)sc1-c1ccc(C(N)=O)nc1,-18.9
Cc1c[nH]c2nccc(Oc3c(F)cc(Nc4cc(Cl)nc(N)n4)cc3F)c12,-16.6
O=C(Nc1ccc(-n2nc(-c3cccnc3)cc2C(F)(F)F)cn1)c1ccc(-c2ccccc2)c(F)c1,68.2
CN1C(=O)[C@@H](N2CCc3cn(Cc4ccccc4)nc3C2=O)COc2ccccc21,-11.5
Nc1c(C(=O)NCc2ccc(C(=O)NCCCC3CCCCC3)cc2)cnn1-c1ccccc1,26.8
Cc1c(N2CCCC2)nc2ccc(Br)cc2c1C(=O)NC[C@H](CCC(=O)O)c1ccccc1Cl,-12.3
O=C(Nc1cccnn1)N1CC(CC=Cc2cncc(Oc3ccc(C(F)(F)F)cn3)n2)C1,-12.4
COc1cccc(CNC(=O)c2nc3scc(COCc4ccc(C(=O)O)cc4)c3c(=O)[nH]2)c1,9.28
COCCc1ccc(-c2c(C)nc3c(N4CCOCC4)ccnn23)cn1,9.55
c1ccc(C2CCN(c3cnc4c(N5CCOCC5)nccn34)CC2)cc1,85.9
CC(=O)Nc1nc(CN2CCC[C@H](Cc3cc(C)nc(C)c3)C2)cs1,81.9

# Study 4
# Target: Calcium/calmodulin-dependent protein kinase type II subunit alpha (CAMK2A, Homo sapiens, UniProt Q9UQM7)
# UniProt Q9UQM7, sequence (whole entry, looked up): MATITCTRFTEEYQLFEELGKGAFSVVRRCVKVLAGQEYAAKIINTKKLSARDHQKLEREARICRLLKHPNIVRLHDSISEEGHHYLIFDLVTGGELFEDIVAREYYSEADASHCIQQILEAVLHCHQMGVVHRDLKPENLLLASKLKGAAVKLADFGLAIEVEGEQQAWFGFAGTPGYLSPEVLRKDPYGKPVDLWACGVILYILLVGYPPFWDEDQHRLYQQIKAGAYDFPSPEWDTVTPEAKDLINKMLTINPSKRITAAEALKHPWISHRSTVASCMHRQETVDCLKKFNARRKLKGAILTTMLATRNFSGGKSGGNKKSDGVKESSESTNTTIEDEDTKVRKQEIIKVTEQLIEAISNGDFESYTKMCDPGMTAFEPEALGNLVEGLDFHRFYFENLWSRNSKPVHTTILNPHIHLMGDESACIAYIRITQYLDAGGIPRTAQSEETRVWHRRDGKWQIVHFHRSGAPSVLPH
# Effect on: enzyme activity
# Action: inhibitor
# Tested at: 10 µM
SMILES,inhibition
C[C@H]1CCC[C@@H](O)CCC/C=C/c2cc(O)cc(O)c2C(=O)O1,-20%
CC(O)(CS(=O)(=O)c1ccc(F)cc1)C(=O)Nc1ccc(C#N)c(C(F)(F)F)c1 (stereo not drawn),-9%
Cn1cnc(CCN)c1,-14%
Cc1ccc2c(c1)[C@]13CCCC[C@@H]1[C@H](C2)N(C)CC3,-3%
C[C@]12CCC(=O)C=C1CC[C@@H]1[C@@H]2[C@@H](O)C[C@]2(C)C(=O)CC[C@@H]12,2%

# Study 5
# Organism: Sarcocystis neurona
# Effect on: parasite growth
# Tested at: 10 µM
# Time: 96 h
# Reference: untreated
SMILES,log2 fold change
O=C(O)C(Cl)Cl,0.27
CN1C(=O)CN=C(c2ccccc2)c2cc(Cl)ccc21,-1.47
O=C(c1ccc(F)cc1)C1CCN(CCn2c(=S)[nH]c3ccccc3c2=O)CC1,-3.32
CCC1(c2ccc(N)cc2)CCC(=O)NC1=O (stereo not drawn),0.36
CC(C)[C@]12O[C@H]1[C@@H]1O[C@]13[C@]1(O[C@H]1C[C@H]1C4=C(CC[C@@]13C)C(=O)OC4)[C@@H]2O,-2.85
Oc1c(Cl)cc(Cl)c(Cl)c1Cc1c(O)c(Cl)cc(Cl)c1Cl,-2.52

# Mixed results
SMILES,target,effect on,action,tested at,measurement,result
COc1ccc(S(=O)(=O)N(CC(=O)NO)CC(C)C)cc1,"Matrix metalloproteinase-9 (MMP9, Homo sapiens, UniProt P14780, Q279R)",enzyme activity,inhibitor,10 nM,inhibition,74%
